Measured values gathered from unrelated publications.
Compare with care: the assays were run in different laboratories. ± gives the spread as reported.

`CCCCCOc1ccc(-c2ccc(-c3ccc(C(=O)N[C@H]4C[C@@H](O)[C@@H](OCC[N+](C)(C)C)NC(=O)[C@@H]5[C@@H](O)[C@@H](C)CN5C(=O)[C@H]([C@@H](C)O)NC(=O)[C@H]([C@H](O)[C@@H](O)c5ccc(O)cc5)NC(=O)[C@@H]5C[C@@H](O)CN5C(=O)[C@H]([C@@H](C)O)NC4=O)cc3)cc2)cc1` gave a potassium of 4.2 mmol/L (adult ICU patients, mITT, serum; dose not given, day 30).
The Hyponatraemia incidence of `Cc1cc(C)c(CNC(=O)c2cc(Cl)c3c(c2C)O[C@@](C)([C@H]2CC[C@H](N(C)C)CC2)O3)c(=O)[nH]1` is reported as 0% (human, relapsed/refractory NHL; concentration not given, all TEAEs, grade 5).
Under “Pneumonia AE leading to dose reduction”, `CO[C@H]1C[C@@H]2CC[C@@H](C)[C@@](O)(O2)C(=O)C(=O)N2CCCC[C@H]2C(=O)O[C@H]([C@H](C)C[C@@H]2CC[C@@H](OC(=O)NCCOCCOCCOCCOCCOCCOCCOCCOCCC(=O)N3CCc4cc(Cn5nc(-c6ccc7oc(N)nc7c6)c6c(N)ncnc65)ccc4C3)[C@H](OC)C2)C[C@@H](O)[C@H](C)/C=C(\C)[C@@H](O)[C@@H](OC)C(=O)[C@H](C)C[C@H](C)/C=C/C=C/C=C/1C` is recorded as 1.8% (patients with advanced solid tumours; intravenous, dose not given, grade ≥3).
Under “drug-related Hyperhidrosis incidence”, `C[C@]1(CO)Cc2ncn(-c3ccc(C#N)c(Cl)c3)c2C(=O)O1` is recorded as 2.2% (healthy humans; concentration not given, multiple dose part total).
For `COc1cc2c(Oc3ccc4[nH]c(C)cc4c3F)ccnc2cc1OCC1(N)CC1`, “incidence of adverse event” read 0% (item: grade 1 or 2 weight loss; paediatric high-risk refractory sarcoma; 8 mg).
For `CC(C)[C@@H]1NC(=O)CNC(=O)[C@H](CC(N)=O)NC(=O)[C@H](CCCNC(=N)N)NC(=O)[C@H](Cc2ccc(O)cc2)NC(=O)[C@H](C(C)C)NC(=O)[C@@H](NC(=O)[C@@H](NC(=O)[C@H](CC(N)=O)NC(=O)[C@H](Cc2c[nH]c3ccccc23)NC(=O)[C@H](C)NC(=O)[C@H](Cc2ccccc2)NC(=O)CN)C(C)C)CSSC[C@@H](C(=O)N[C@@H](Cc2cnc[nH]2)C(=O)N[C@@H](CCCNC(=N)N)C(=O)N[C@@H](CCCNC(=N)N)C(=O)N[C@@H](C)C(=O)N[C@@H](CC(N)=O)C(N)=O)NC(=O)[C@H](C(C)C)NC(=O)[C@H](CCCNC(=N)N)NC1=O`, the ALT was 51.8 ± 1.84 IU/L (ICR mouse, blood; intramammary, 10 mg/kg, day 5, 3 d dosing).
With `CNC(=O)c1cc(Oc2ccc(NC(=O)Nc3cc(C(C)(C)C)nn3-c3ccc4ncccc4c3)c(F)c2)ccn1` the related SAE was 2% (NCI CTC v3.0; human patients; oral, all dose levels).
For `Cn1ncc(-c2nc(N[C@H]3CC[C@H](N)CC3)ncc2Cl)c1CC1CC1`, “adverse event incidence” read 10% (item: epistaxis grade 3 or higher; human patients phase I; dose not given).
For `C[C@@H](NC(=O)N1C(=O)[C@H](Cc2ccnc(N)c2)[C@H]1C(=O)O)C1CCCCC1`, “drug-related abnormal liver function” read 0% (healthy adult Chinese volunteers; continuous intravenous infusion, 1.0 mg/kg/h, 5-day infusion, CTCAE 5.0 grading).
`C[C@]1(O)C[C@@](N)(c2ccc(-c3nc4n(c3-c3ccccc3)COc3ccncc3-4)cc2)C1`: “patients with Diarrhea TEAE” 14.3% (human, advanced or metastatic solid tumours; intermittent, dose escalation total, any grade).
Under “blood bilirubin increased incidence”, `CCN1CCN(Cc2ccc(Nc3ncc(F)c(-c4cc(F)c5nc6n(c5c4)[C@H](C)CCC6)n3)nc2)CC1` is recorded as 20.8% (Phase Ia dose escalation; patients with advanced solid tumours; dose not given, monotherapy, any grade).
`CC[C@H](C)[C@@H]1NC(=O)[C@@H]2CSSC[C@H](NC(=O)[C@H](CCCNC(=N)N)NC(=O)[C@@H]3CSSC[C@H](NC1=O)C(=O)N[C@@H]([C@@H](C)O)C(=O)N[C@@H](CCCNC(=N)N)C(=O)NCC(=O)N[C@@H](Cc1ccccc1)C(=O)N3)C(=O)N[C@@H](CC(C)C)C(=O)N[C@H]1CSSC[C@H](NC(=O)[C@H](C(C)C)NC(=O)CNC(=O)[C@H](CCCNC(=N)N)NC(=O)[C@H](CCCNC(=N)N)NC1=O)C(=O)N[C@@H](CCCNC(=N)N)C(=O)N2`: “eosinophilic infiltration score” 1 to 2 (Sprague-Dawley rats, female, lung; 20 mg/kg, perivascular and peribronchiolar; direction not given).
`O=C(Nc1ccccc1)C1CCN(C(=O)Oc2cccnc2)CC1` — result for “subjects with tremor”: 0% (adverse event reporting; healthy women; oral, 60 mg).
`CC(C)(O)c1cc(Nc2cc(Oc3cn(C4CC4)nc3C3CCOCC3)ccn2)ccn1` — result for “treatment-emergent adverse events”: 0% (item: Cough; patients with advanced cancer; oral, dose not given).

Some of these lines once more:
`CC(C)(O)c1cc(Nc2cc(Oc3cn(C4CC4)nc3C3CCOCC3)ccn2)ccn1` — result for “treatment-emergent adverse events”: 0% (item: Cough; patients with advanced cancer; oral, dose not given).
`CCCCCOc1ccc(-c2ccc(-c3ccc(C(=O)N[C@H]4C[C@@H](O)[C@@H](OCC[N+](C)(C)C)NC(=O)[C@@H]5[C@@H](O)[C@@H](C)CN5C(=O)[C@H]([C@@H](C)O)NC(=O)[C@H]([C@H](O)[C@@H](O)c5ccc(O)cc5)NC(=O)[C@@H]5C[C@@H](O)CN5C(=O)[C@H]([C@@H](C)O)NC4=O)cc3)cc2)cc1` gave a potassium of 4.2 mmol/L (adult ICU patients, mITT, serum; dose not given, day 30).
